Experimental data from different studies.
Every numbered part comes from another study and shows a few of its results, in no order. Positions count from the first letter of the parent shown.

Set 1 — method: RNA Bind-n-Seq; form: RNA; sample: in vitro; concentration: not given; relative to: input RNA pool; reading: higher = stronger binding
Target: RING finger protein unkempt homolog, zinc fingers 1-6, GST-SBP tag (UNK, Homo sapiens, UniProt Q9C0B0, residues 30-357)
Notes: RNA with constant flanks, human-mouse chimeric sites, ends assumed
Residues (chain): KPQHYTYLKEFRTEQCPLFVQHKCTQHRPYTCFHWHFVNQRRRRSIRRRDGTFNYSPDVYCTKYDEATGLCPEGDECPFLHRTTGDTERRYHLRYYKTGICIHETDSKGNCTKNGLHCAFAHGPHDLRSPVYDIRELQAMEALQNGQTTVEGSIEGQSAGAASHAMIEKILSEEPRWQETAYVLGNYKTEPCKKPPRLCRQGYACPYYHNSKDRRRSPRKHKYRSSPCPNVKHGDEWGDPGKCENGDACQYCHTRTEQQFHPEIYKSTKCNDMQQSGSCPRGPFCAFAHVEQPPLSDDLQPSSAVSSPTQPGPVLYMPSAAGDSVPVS
| Oligonucleotide | bound/input enrichment [ratio] |
| --- | --- |
| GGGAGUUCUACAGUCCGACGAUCGAAUCCUACUCAGGCGGUCCCACAACAACCAAGCUCACAGCAGCAGCAUCUUAGUCACAGUAGGGUAGUUUUGGGGCUCUGUGGCCAGGGUUUUAUUCACAUGCAGGUUUUGAAAAUGUACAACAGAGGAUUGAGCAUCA | 0.865 |
| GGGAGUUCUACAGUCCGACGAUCGAGCCCAGUCGGCAGUUUGUAAAGGACUCAAUUCGGCUGGUUAAAAGAUGCACCAAACCCGACAGAAAAGAAUUCCAGAAGAUUGCCAUGGCUACAGCUAUAGGAUUUGCUAUCAUGGGACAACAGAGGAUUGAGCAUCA | 0.288 |
| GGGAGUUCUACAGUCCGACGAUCGGGGAGAAACCUUACGAGUGUGUGCAGUGUGGGAAAUCGUAUAGUCAGAGCUCAAACCUCUUCAGACAUCAGAGACGACACAAUGCAGAAAAACUUUUGAAUGUUGUGAAAGUUUAAGAACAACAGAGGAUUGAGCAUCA | 0.888 |
| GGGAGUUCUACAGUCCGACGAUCGUGCCCUCCUUCUCGCUGCGGAGCCCGAGCUGGGAACCAUUCCGGGACUGGUACCCUCCGCAUAGCCGCCUCUUCGAUCAAGCUUUCGGGGUGCCCCGGUUGCCCGAUGAGUGGUCGCAGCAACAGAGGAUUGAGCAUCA | 0.0781 |
| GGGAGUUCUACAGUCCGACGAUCAAAGAACCUCUCUCUGAUGAAGAUGAGGAAGACAAUGAUGAUGUUGAACCCAUUUCUGAAUUUCGAUUUGUGCCCAGUGAUAAAUCAGCGUUGGAGGCGAUGUUCACAGCAAUGUGUGAGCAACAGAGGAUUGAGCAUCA | 0.287 |
| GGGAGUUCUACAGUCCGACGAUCUUGAAAACUGAUUCAAGCAAGUUUGAAUAUCACAAUGUUAGCUUUCUAAUUCCAUAAAAGUACUUGGUUUUUACAGUAACCCCACAUACAUCACCCCAGCGCCAUUUGUAAAGAGCAACUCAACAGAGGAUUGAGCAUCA | 0.978 |
| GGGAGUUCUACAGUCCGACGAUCGGACAUCUGUCAAAUUGUUAUGUUCCUAAAAACGUAGUGAGCACUUUGAUACACUUCAUCUGCUUGUACAUCUGUAUGAUAGAGAAAUGUAAAUAUGUUAAUCCAAGCAAUGUGUCACUUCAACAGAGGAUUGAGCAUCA | 0.307 |
| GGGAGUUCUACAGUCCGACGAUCAACUUCGUGCAUCGGUUUCCUUUUGUAGCUGUUUCAAUUGGCUUCCUUGUAAAUAAAGAGAUGGAGUUUGGAAUUGUGUACAGCUGUGUGGAAGAUAAGAUGUACACCGGCAGGAAAGGGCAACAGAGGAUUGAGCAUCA | 0.368 |
| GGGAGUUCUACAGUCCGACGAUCGGGUGGGUGGUCAUUGCCGUUUGAGCUCUGCUGAUUCAUGAGUCGCCUUCAAAACUCUCGUGUAGGGUUGACAAUGUGGGGGGGUGGGGGAUCCAGCUUAUUCUUUUAUUUUCAAGUCCACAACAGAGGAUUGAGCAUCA | 1.06 |
| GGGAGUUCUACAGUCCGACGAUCCUGUGACCACAAGAUCCUACCUGAGUGGCAGCUGAAGUUGACUCCCUCCCCUUCCCUGAACCCCCCCCCACUGCCCCCCCAUCCCCCAGUGUCGGCUGAGAUGUUGCCUCUGCACGGUUCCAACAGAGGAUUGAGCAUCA | 1.32 |
| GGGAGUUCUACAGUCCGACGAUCAAUUUCCGCAACUGUUUUUUAGACAUUCACAUCAGACUUACAGAGCACCUGGCCACAUUCUAGGUUUGUGUUAUUUCUCAGCUAUGGAUAUGAUCAAAUGAGAACACUGCUUAACUAAUGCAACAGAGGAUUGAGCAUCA | 0.495 |

Set 2 — target: CCND1, cyclin fold, Cln2 fusion (human); method: yeast growth competition, sequencing; sample: yeast; notes: weak parent motif; relative to: not given; reading: higher = stronger binding
Parent: CDC25A docking peptide (human); PPHRRRLLFACSP; partner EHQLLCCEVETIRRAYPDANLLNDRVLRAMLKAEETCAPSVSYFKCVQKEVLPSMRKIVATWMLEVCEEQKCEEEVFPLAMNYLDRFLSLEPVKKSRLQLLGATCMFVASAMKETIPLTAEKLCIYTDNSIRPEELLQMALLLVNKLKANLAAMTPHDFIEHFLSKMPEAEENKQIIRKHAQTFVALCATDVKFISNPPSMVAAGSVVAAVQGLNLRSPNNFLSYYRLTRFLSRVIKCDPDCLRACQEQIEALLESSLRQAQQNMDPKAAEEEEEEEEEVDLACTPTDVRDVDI
| Change | normalised enrichment score |
| --- | --- |
| A10W | 0.492 |
| P13I | 0.342 |
| L8D | 0.162 |
| P1Y | 0.252 |
| P1G | -0.123 |
| R6K | 0.0635 |
| S12W | 0.558 |
| A10M | 0.612 |
| C11K | -0.399 |
| R5K | 0.462 |
| R5Y | -0.193 |
| S12H | 0.246 |
| L7F | 0.412 |
| R5S | 0.257 |
| R6L | 0.506 |
| P2I | 0.102 |
| S12A | 0.258 |
| P13D | 1 |
| P2S | -0.0312 |
| P2C | 0.669 |
| F9R | 0.465 |
| L8T | 0.204 |
| L8F | -0.0218 |
| R6H | 0.0974 |
| L8N | 0.109 |

Set 3 — method: protein binding microarray; form: double-stranded DNA, one strand shown; sample: in vitro; concentration: not given; relative to: not given; reading: higher = stronger binding
Target: Histone acetyltransferase KAT6A, both winged helices, GST fusion (KAT6A, Homo sapiens, UniProt Q92794, residues 1-181)
Notes: 8-mer, flanks averaged, mean of 2 arrays, mostly near background
Residues (chain): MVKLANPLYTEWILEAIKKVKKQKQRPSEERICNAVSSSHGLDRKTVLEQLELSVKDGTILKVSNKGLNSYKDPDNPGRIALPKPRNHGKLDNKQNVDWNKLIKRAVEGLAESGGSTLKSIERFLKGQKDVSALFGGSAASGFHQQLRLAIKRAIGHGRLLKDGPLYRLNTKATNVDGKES
| Oligonucleotide | E-score |
| --- | --- |
| ACCGGGAC | 0.175 |
| AACCTCAG | -0.0684 |
| CCAGGTAC | -0.186 |
| TAATTAAA | -0.0659 |
| GTATGGCA | -0.0572 |
| CTCTCGGC | 0.0998 |
| GTACCGTA | 0.221 |
| CCGGTCCA | 0.0944 |
| AAGATTTG | 0.00238 |
| TCCTTTCA | -0.0523 |
| CTGAATCC | -0.0977 |
| ACGATCCC | 0.0329 |
| ACCTCAAG | -0.23 |
| TAAGGACA | -0.00175 |
| AATGTTCG | 0.0605 |
| GGTGACCA | -0.128 |
| CGTCGAAC | 0.0941 |
| GATACTCC | -0.106 |
| GGGCGTGA | 0.142 |
| CATGCGCA | 0.251 |
| CCTCATAC | -0.179 |
| CGTGGTTC | 0.122 |
| GTGTTCCA | -0.0454 |
| ATTGAGTG | -0.0975 |
| AATGGGGA | -0.207 |

Set 4 — method: protein-binding microarray; form: double-stranded DNA, one strand shown; sample: in vitro; concentration: 2200 nM top; notes: 60-bp whole probe; with: salmon DNA 0.4 mg/ml; relative to: random background probes; reading: higher = stronger binding; all sequences stand within: GCCTAGCAC … GTCTTGATTCGCTTGACGCTGCTG
Target: Interferon regulatory factor 7, full length, phosphomimetic (IRF7, Homo sapiens, UniProt Q92985, residues 1-503, S471D/S472D/S475D/S476D/S477D/S483D/S484D/S487D)
Chain of UniProt Q92985 (whole entry, unmodified, looked up): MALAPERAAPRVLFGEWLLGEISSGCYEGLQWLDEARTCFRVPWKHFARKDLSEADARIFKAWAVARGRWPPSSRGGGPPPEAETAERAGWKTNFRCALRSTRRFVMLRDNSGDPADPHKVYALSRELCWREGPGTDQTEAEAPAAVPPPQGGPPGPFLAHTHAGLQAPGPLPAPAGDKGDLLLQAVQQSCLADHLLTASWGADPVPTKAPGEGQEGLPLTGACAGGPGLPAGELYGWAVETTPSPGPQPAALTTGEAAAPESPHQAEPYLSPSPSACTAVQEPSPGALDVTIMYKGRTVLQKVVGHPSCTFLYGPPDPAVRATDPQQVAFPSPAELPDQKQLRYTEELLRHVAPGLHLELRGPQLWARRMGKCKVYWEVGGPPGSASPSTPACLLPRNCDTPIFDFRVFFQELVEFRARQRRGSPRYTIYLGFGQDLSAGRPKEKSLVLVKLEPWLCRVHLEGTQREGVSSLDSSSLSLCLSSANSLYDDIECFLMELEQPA
| Oligonucleotide | fitted relative affinity |
| --- | --- |
| TTAGATCTGGGGACTGGATTAGTGCTA | -0.286 z-score |
| TTTGAACTGAGTTTCGATTAGTGCTAG | 3.76 z-score |
| TCATAACTCATTTTCGTACTGTGCTAG | 3.51 z-score |
| TTAGATTTCGGGTTTCGATTGGTGCTA | 7.44 z-score |
| GACGCTTTCCTTTCCCTGACGTGCTAG | 6.37 z-score |
| GTCGGTCTCCTTCTCCTGACGTGCTAG | 1.81 z-score |
| TCATTCCTGATCTCTGGTACTGTGCTA | 1.77 z-score |
| TCACATTCCCCATTGTGACTGTGCTAG | 2.95 z-score |
| TAAGGACTGGACACTGGGTTAGTGCTA | -0.73 z-score |
| TTAGGTATCCGTATCGGTTAGTGCTAG | 0.737 z-score |
| GTTACTTTCTACTTCTCTTTGTGCTAG | 7.56 z-score |
| GACGGTATCGACCTTCGGGACGTGCTA | -0.122 z-score |
| TTAGGTTTCCTTATCCTGTAGTGCTAG | 2.32 z-score |
| TCATGTGTGTGTTTGTGACTGTGCTAG | 1.06 z-score |
| TTAGGCCTCGGTATCGGTTAGTGCTAG | 0.226 z-score |
| GACGATTCCAGTTTCGAAACGTGCTAG | 4.12 z-score |
| GACAGTATCGACTATCGGGACGTGCTA | -0.0708 z-score |
| GACGGTTTCGGTTCCCGGACGTGCTAG | 13.3 z-score |
| TTAGGTATCGGGACTTGGTTAGTGCTA | 0.0753 z-score |
| TTAGGTCACCTTCTCCTTTAGTGCTAG | 0.848 z-score |
| GACGGTCTCCTTCTACTGACGTGCTAG | 1.24 z-score |
| GACGCTCTCAGTATCGAGACGTGCTAG | 0.291 z-score |

Set 5 — method: DHFR PCA, dose-response; sample: yeast; notes: Hill fit, mean, not affinity; with: (+)-ABA, dose series; reading: lower = more sensitive
Target: ABI1, truncated, D143A, DHFR fusion (Arabidopsis thaliana, UniProt P49597)
Parent: PYL1, truncated, DHFR fusion (Arabidopsis thaliana, UniProt Q8VZS8); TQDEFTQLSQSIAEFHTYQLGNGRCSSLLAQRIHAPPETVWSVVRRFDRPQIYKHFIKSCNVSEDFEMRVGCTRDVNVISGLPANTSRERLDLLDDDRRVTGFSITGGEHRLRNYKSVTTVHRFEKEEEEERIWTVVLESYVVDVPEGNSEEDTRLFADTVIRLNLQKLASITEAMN
| Change | ABA EC50 [µM] |
| --- | --- |
| E174Y | 35.7 |
| P36C | 5.83 |
| D3S | 3.46 |
| G107D | 29.8 |
| A30E | 7.53 |
| K58V | 23.9 |
| V43S | 147 |
| E129M | 2.69 |
| G148Q | 14.3 |
| A13N | 4.06 |
| S150N | 2.9 |
| S171Q | 1.29 |
| R24G | 31.9 |
| A170G | 8.75 |
| V145H | 209 |
| K116W | 732 |

Other studies, line by line
| Substance | target | assay | test system | conditions | scale | endpoint | value |
| --- | --- | --- | --- | --- | --- | --- | --- |
| PhoQ, residues 284 288 289 292 302 303 SLSLLA | PhoP, residues 12 14 15 18 19 NHFIF (Escherichia coli, UniProt P23836) | Sort-seq, refers to: YFP reporter | E. coli | PhoQ-PhoP variant library, with: 10 µM Mg2+ | relative to: high Mg2+ state, higher = stronger signaling | fold induction | 1.35 |

A few entries again (set 2):
| Change | normalised enrichment score |
| --- | --- |
| R5S | 0.257 |
| R6L | 0.506 |
| P2I | 0.102 |
| S12A | 0.258 |
| P13D | 1 |
| P2S | -0.0312 |
| P2C | 0.669 |
